Published values gathered from unrelated publications.
Numbers after ± are the reported error.

Compound	test system	setting	tissue uptake
CC(C)C[C@H](NC(=O)[C@@H](CCCCNC(=O)CCCCCNC(=O)CN1CCN(CC(=O)O)CCN(CC(=O)O)CCN(CC(=O)O)CC1)NC(=O)[C@H](Cc1ccc(O)cc1)NC(=O)[C@H](CO)NC(=O)[C@H](Cc1c[nH]c2ccccc12)NC(=O)[C@H](Cc1cnc[nH]1)NC(=O)[C@@H]1CCC(=O)N1)C(=O)N[C@@H](CCCNC(=N)N)C(=O)N1CCC[C@H]1C(=O)NCC(N)=O [indium-111 labelled]	female athymic nude mouse, tumor	intravenous, 0.037 MBq, 2 h	0.29 ± 0.1 %ID/g
CCCC[C@H](NC(=O)CCCCCCCNC(=O)CN1CCN(CC(=O)O)CCN(CC(=O)O)CC1)C(=O)N[C@H]1CC(=O)NCCCC[C@@H](C(N)=O)NC(=O)[C@H](Cc2c[nH]c3ccccc23)NC(=O)[C@H](CCCNC(=N)N)NC(=O)[C@@H](Cc2ccccc2)NC(=O)[C@H](Cc2c[nH]cn2)NC1=O [copper-64 labelled]	C57 mice, intestine	intravenous, 0.37 MBq, 4 h	2.04 ± 0.25 %ID
CCCC[C@H](NC(=O)CNC(=O)CNC(=O)CN1CCN(CC(=O)O)CCN(CC(=O)O)CC1)C(=O)N[C@H]1CC(=O)NCCCC[C@@H](C(N)=O)NC(=O)[C@H](Cc2c[nH]c3ccccc23)NC(=O)[C@H](CCCNC(=N)N)NC(=O)[C@@H](Cc2ccccc2)NC(=O)[C@H](Cc2c[nH]cn2)NC1=O [technetium-99m labelled]	C57 mouse, skin	iv, 0.037 MBq, 4 h	0.07 ± 0.07 %ID/g
N=C(N)NCCC[C@@H]1NC(=O)[C@H](CCCCNC(=O)CNC(=O)CNC(=O)CNC(=O)CC[C@H](NC(=O)CNC(=O)CNC(=O)CNC(=O)CC[C@H](NC(=O)CN2CCN(CC(=O)O)CCN(CC(=O)O)CCN(CC(=O)O)CC2)C(=O)NCC(=O)NCC(=O)NCC(=O)N[C@@H](CCC(=O)NCC(=O)NCC(=O)NCC(=O)NCCCC[C@@H]2NC(=O)[C@@H](Cc3ccccc3)NC(=O)[C@H](CC(=O)O)NC(=O)CNC(=O)[C@H](CCCNC(=N)N)NC2=O)C(=O)NCC(=O)NCC(=O)NCC(=O)NCCCC[C@@H]2NC(=O)[C@@H](Cc3ccccc3)NC(=O)[C@H](CC(=O)O)NC(=O)CNC(=O)[C@H](CCCNC(=N)N)NC2=O)C(=O)NCC(=O)NCC(=O)NCC(=O)NCCCC[C@@H]2NC(=O)[C@@H](Cc3ccccc3)NC(=O)[C@H](CC(=O)O)NC(=O)CNC(=O)[C@H](CCCNC(=N)N)NC2=O)NC(=O)[C@@H](Cc2ccccc2)NC(=O)[C@H](CC(=O)O)NC(=O)CNC1=O [indium-111 labelled]	female athymic nu/nu mice, muscle	intravenous, 0.5 h	1.23 ± 0.42 %ID/g
CCCC[C@H](NC(=O)CNC(=O)CNC(=O)CN1CCN(CC(=O)O)CCN(CC(=O)O)CCN(CC(=O)O)CC1)C(=O)N[C@H]1CC(=O)NCCCC[C@@H](C(N)=O)NC(=O)[C@H](Cc2c[nH]c3ccccc23)NC(=O)[C@H](CCCNC(=N)N)NC(=O)[C@@H](Cc2ccccc2)NC(=O)[C@H](Cc2c[nH]cn2)NC1=O [lutetium-177 labelled]	C57 mouse, female, kidneys	intravenous, 0.037 MBq, 2 h	7.83 ± 1.38 %ID/g
N=C(N)NCCC[C@@H]1NC(=O)[C@H](CCCCNC(=O)CNC(=O)CNC(=O)CNC(=O)CC[C@H](NC(=O)CNC(=O)CNC(=O)CNC(=O)CN2CCN(CC(=O)O)CCN(CC(=O)O)CCN(CC(=O)O)CC2)C(=O)NCC(=O)NCC(=O)NCC(=O)NCCCC[C@@H]2NC(=O)[C@@H](Cc3ccccc3)NC(=O)[C@H](CC(=O)O)NC(=O)CNC(=O)[C@H](CCCNC(=N)N)NC2=O)NC(=O)[C@@H](Cc2ccccc2)NC(=O)[C@H](CC(=O)O)NC(=O)CNC1=O [indium-111 labelled]	female athymic nu/nu mice, lungs	intravenous, 24 h	0.75 ± 0.02 %ID/g
CCCC[C@H](NC(=O)COCCOCCNC(=O)CN1CCN(CC(=O)O)CCN(CC(=O)O)CC1)C(=O)N[C@H]1CC(=O)NCCCC[C@@H](C(N)=O)NC(=O)[C@H](Cc2c[nH]c3ccccc23)NC(=O)[C@H](CCCNC(=N)N)NC(=O)[C@@H](Cc2ccccc2)NC(=O)[C@H](Cc2c[nH]cn2)NC1=O [copper-64 labelled]	C57 mice, muscle	intravenous, 0.37 MBq, 2 h	0.08 ± 0.06 %ID/g
N=C(N)NCCC[C@@H]1NC(=O)[C@H](CCCCNC(=O)CC[C@H](NC(=O)CC[C@H](NC(=O)CN2CCN(CC(=O)O)CCN(CC(=O)O)CCN(CC(=O)O)CC2)C(=O)N[C@@H](CCC(=O)NCCCC[C@@H]2NC(=O)[C@@H](Cc3ccccc3)NC(=O)[C@H](CC(=O)O)NC(=O)CNC(=O)[C@H](CCCNC(=N)N)NC2=O)C(=O)NCCCC[C@@H]2NC(=O)[C@@H](Cc3ccccc3)NC(=O)[C@H](CC(=O)O)NC(=O)CNC(=O)[C@H](CCCNC(=N)N)NC2=O)C(=O)NCCCC[C@@H]2NC(=O)[C@@H](Cc3ccccc3)NC(=O)[C@H](CC(=O)O)NC(=O)CNC(=O)[C@H](CCCNC(=N)N)NC2=O)NC(=O)[C@@H](Cc2ccccc2)NC(=O)[C@H](CC(=O)O)NC(=O)CNC1=O [indium-111 labelled]	female athymic nu/nu mice, bone	intravenous, 0.5 h	1.64 ± 0.17 %ID/g
N=C(N)NCCC[C@@H]1NC(=O)[C@H](CCCCNC(=O)CNC(=O)CNC(=O)CNC(=O)CC[C@H](NC(=O)CNC(=O)CNC(=O)CNC(=O)CN2CCN(CC(=O)O)CCN(CC(=O)O)CCN(CC(=O)O)CC2)C(=O)NCC(=O)NCC(=O)NCC(=O)NCCCC[C@@H]2NC(=O)[C@@H](Cc3ccccc3)NC(=O)[C@H](CC(=O)O)NC(=O)CNC(=O)[C@H](CCCNC(=N)N)NC2=O)NC(=O)[C@@H](Cc2ccccc2)NC(=O)[C@H](CC(=O)O)NC(=O)CNC1=O [copper-64 labelled]	athymic nu/nu mouse, female, muscle	intravenous, 0.5 h	1.61 ± 0.66 %ID/g
